Experimental data of several laboratories.
Numbered parts are unrelated; each lists some results of a single study. Substitutions count along the parent as printed.

Study 1
Target: Histone acetyltransferase KAT6A, winged helix 1, GST fusion (KAT6A, Homo sapiens, UniProt Q92794, residues 1-85)
Method: protein binding microarray
Form: double-stranded DNA, one strand shown
Matrix: in vitro
Tested at: not given
Notes: 8-mer, flanks averaged, mean of 2 arrays, mostly near background
Relative to: not given
Direction: higher = stronger binding
Residues (chain): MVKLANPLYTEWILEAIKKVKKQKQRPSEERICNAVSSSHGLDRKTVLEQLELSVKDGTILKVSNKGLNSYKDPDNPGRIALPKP
With `GCTCGGGA` the E-score was 0.2.
The E-score of `CAGCATAC` is reported as -0.094.
`CAGCACGA` has an E-score of -0.162.
For `AGACGTGC`, the E-score was -0.0494.
`AAGCGTCC` gave an E-score of 0.0188.
`CGGTCGTA` has an E-score of 0.235.
For `GTGGCCCA`, the E-score was -0.132.
The E-score of `GCGTTTCC` is reported as 0.211.
For `TACCTCGA`, the E-score was -0.251.
With `CAAAGAGG` the E-score was -0.18.

Study 2
Target: Sal-like protein 4, full length isoform B (SALL4, Homo sapiens, UniProt Q9UJQ4-2, residues 1-616)
Method: universal PBM
Form: double-stranded DNA, one strand shown
Matrix: in vitro
Tested at: not given
Notes: 8-mer, flanks averaged, mean of replicates
Direction: higher = stronger binding
Residues (chain): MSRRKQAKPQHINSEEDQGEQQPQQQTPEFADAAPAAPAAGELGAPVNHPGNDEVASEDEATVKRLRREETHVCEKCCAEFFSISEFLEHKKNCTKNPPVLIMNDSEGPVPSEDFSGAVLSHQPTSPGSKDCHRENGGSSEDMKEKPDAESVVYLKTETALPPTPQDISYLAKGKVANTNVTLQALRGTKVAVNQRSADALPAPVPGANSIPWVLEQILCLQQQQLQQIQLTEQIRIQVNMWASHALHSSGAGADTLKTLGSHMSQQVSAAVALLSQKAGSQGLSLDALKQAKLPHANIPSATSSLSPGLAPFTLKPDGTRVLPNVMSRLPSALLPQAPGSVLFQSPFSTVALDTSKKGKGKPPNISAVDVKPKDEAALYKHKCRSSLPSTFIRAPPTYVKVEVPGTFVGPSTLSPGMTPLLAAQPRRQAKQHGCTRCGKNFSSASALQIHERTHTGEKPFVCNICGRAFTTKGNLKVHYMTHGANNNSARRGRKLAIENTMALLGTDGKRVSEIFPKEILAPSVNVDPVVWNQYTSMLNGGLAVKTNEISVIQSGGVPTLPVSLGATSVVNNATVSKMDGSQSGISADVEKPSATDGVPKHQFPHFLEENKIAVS
`ATGGCAGA` gave an E-score of -0.0808.
For `ACCCTCGG`, the E-score was -0.216.
With `CGTCTCTC` the E-score was -0.0883.
`CTAAAGTA` has an E-score of 0.112.
The E-score of `ATGGCTCA` is reported as -0.068.
The E-score of `CCTCTTAC` is reported as -0.216.
`GACGCGCA` gave an E-score of -0.206.
`ATGAGCAT` gave an E-score of 0.169.
The E-score of `GAACTTCA` is reported as 0.0314.
With `CCCTTCGC` the E-score was -0.207.

Study 3
Target: CCNB1, cyclin fold, Cln2 fusion (human)
Method: yeast growth competition, sequencing
Matrix: yeast
Notes: weak parent motif
Relative to: not given
Direction: higher = stronger binding
Parent: SLBP docking peptide (human); ARYKRKLLINDFG
`A1V`: “normalised enrichment score” 1.01.
For `Y3Q`, “normalised enrichment score” read 0.464.
`R2E` — result for “normalised enrichment score”: 1.26.
For `A1N`, “normalised enrichment score” read 1.1.
`D11S`: “normalised enrichment score” 0.559.
`A1C`: “normalised enrichment score” 0.469.
`G13T`: “normalised enrichment score” 0.435.

Single results of other studies
`PhoQ, residues 284 288 289 292 302 303 AGGCYF` has a fold induction of 2.09 (PhoP, residues 12 14 15 18 19 AQALL (Escherichia coli, UniProt P23836); Sort-seq, measured: YFP reporter; E. coli; PhoQ-PhoP variant library, with: 10 µM Mg2+; relative to: high Mg2+ state, higher = stronger signaling).

Repeated from above (study 3):
`R2E` — result for “normalised enrichment score”: 1.26.
`G13T`: “normalised enrichment score” 0.435.
`D11S`: “normalised enrichment score” 0.559.
